Results collected from several papers.
A part holds a random share of what one study measured.

Sample 1 — method: protein binding microarray; form: double-stranded DNA, one strand shown; sample: in vitro; tested at: not given; reference: not given; reading: higher = stronger binding
Target: Histone acetyltransferase KAT6A, winged helix 1, GST fusion (KAT6A, Homo sapiens, UniProt Q92794, residues 1-85)
Notes: 8-mer, flanks averaged, mean of 2 arrays, mostly near background
Target sequence (chain): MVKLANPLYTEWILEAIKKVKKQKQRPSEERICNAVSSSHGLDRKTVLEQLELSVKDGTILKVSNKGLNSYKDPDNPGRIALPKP
The E-score of `AAACTGAC` is reported as -0.0204.
`ACATCCAG` has an E-score of -0.132.
The E-score of `TACAGGAA` is reported as -0.00167.
With `CCGCTGCA` the E-score was 0.254.
`GGGATGGA` gave an E-score of -0.111.
`AGCACCCG` gave an E-score of 0.325.
With `ACGCTAGA` the E-score was 0.0711.
With `AAAGCAAG` the E-score was -0.0141.
For `ACGTGATA`, the E-score was -0.0487.
For `CCGCCCCC`, the E-score was 0.338.
With `CTCCGATA` the E-score was 0.0621.
For `AGTTAGCG`, the E-score was 0.0268.
For `ACACACAT`, the E-score was -0.212.
For `CGTCCAGA`, the E-score was -0.0917.
For `AATGGAGT`, the E-score was -0.119.
For `ACGGATTA`, the E-score was 0.178.
`ATAACGTA` has an E-score of -0.0579.

Sample 2 — method: EMSA with sequencing; form: double-stranded DNA, one strand shown; sample: in vitro; tested at: 10 and 20 nM; reference: negative control set to 0; reading: higher = stronger binding
Target: Hepatocyte nuclear factor 3-alpha (Foxa1, Mus musculus, UniProt P35582, residues 1-468, full length assumed)
Notes: whole designed probe, mean of two concentrations, ends assumed
Shared flanks, not repeated: GTGAGCGGTGCCCATTGATGGGGAAC … TTTCACTGGGATCGTGGGGAC
Construct (chain): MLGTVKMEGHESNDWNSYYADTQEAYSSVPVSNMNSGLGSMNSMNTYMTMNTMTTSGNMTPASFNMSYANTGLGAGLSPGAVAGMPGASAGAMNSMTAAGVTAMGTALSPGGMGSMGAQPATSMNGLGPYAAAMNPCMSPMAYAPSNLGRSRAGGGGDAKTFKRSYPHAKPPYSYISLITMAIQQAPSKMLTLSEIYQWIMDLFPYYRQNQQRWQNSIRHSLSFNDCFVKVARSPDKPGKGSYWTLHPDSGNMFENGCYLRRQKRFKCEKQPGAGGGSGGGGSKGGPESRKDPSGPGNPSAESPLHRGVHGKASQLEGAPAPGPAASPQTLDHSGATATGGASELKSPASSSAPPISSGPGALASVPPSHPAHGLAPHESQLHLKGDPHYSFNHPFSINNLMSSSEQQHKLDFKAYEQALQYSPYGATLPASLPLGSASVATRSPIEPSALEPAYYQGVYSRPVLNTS
`GCTCTGGGCAGTCACCCAGGTACCACAAAATCCCTATGGGTGTGCATCTCCTTTGTTACCCATGTGTATACTCCCTCCCTGAGCTCAAAGCCATGTTTGCTCAGCTTGATGAAAATGTGTTTCTTGAAAGCCACATTCTTTTCCTTTTCTGAGCCAGTGAGGTTTCTGCAGAGCTCATGGTGCTGATGTTTCC`: “normalised bound fraction” 0.166 ratio.
For `TGACCTGTGATCATGTTTCAGGAAGGAATGAAAGAGAGTTCTTTCTTAATAAAGAAAAACACTCAAGGACTTTGTTCATTTCCAAAGCTACTTGTTTACATTGTACACTGCGACCACCTTGCCGCTTTTCATCACAAGCTTGAATATTTAAATTCTGTACTTATATCTGTAAAATAGCCAGGAATTTCCTGTT`, “normalised bound fraction” read 0.408 ratio.
Under “normalised bound fraction”, `GGCGGAAGTGGAAAGAAATTGAGGGATCTGAATTTGTTGTTTACTAGGAGGTGTGGGTCCAACTTCCAACCTTGTCCCCAGACCTTTTCCAGGTGTTTGCTTAGGAAGCACTGCGATGATGTGGCTTACTATAGTTATTGCAGACAGAAGGAAAATCTACCAAAGCCCCCATGACAATACCAATGAGCAATGA` is recorded as 0.23 ratio.
For `GCAGTTCTGTGGTAGTGGGCATCAGTAAAGCTCTTCTCCAGGGCTAGGCTTCTCCTTATTTCTAGAGTGTCAGGGAAAAGGACTTCTTCAAAGTAAACAAGAAGTGCAATATTCACAAAGGACACATACATTCTCAGTGCTGTATTTGGCTGCAACTTCAGGGAGGTCAGATGGTCGTGCAGTTTACCACTGG`, “normalised bound fraction” read 0.414 ratio.
`ATCTTCCCCCTCTTCCTTGCCCCACCAGCTCACCTACGGGGGTTATTTGCAGATAGGAAAATAAATAAAGCCGGCATTCGTTAACGCAGTTCTGGCGCAAACTGCTGTTTGCTCTGCATGAATCATGGTCCTTACGCGACGCCAGGCTCCGGGAGAGCAAAGCACCGTGTCAGGCGCATGATCCGGGGTGGCC`: “normalised bound fraction” 0.354 ratio.
`ATCTTCCCCCTCTTCCTTGCCCCACCAGCTCACCTTCCCGGGTTATTTGCAGATAGGAAAATAAATAAAGCCGGCATTCGTTAACGCAGTTCTGGCGCAAACTGCTGTTTGCTCTGCATGAATCATGGTCCTTACGCGAGGCGTGGCTCCGGGAGAGCAAAGCACCGTGTCAGGCGCATGATCCGGGCTCGCC`: “normalised bound fraction” 0.358 ratio.
`TTATGTACTTGGAGCAGTTATAGGCACAGTATTTTATTTCCAAGAAAGCAGTGTAGAGGGGCCAAGTAGCATATAGATGGTATATTTAAAAAGTAAACATGCAGTAAATACTTAGTACTCTCTGTACAGAATAAATGAAAATCCAACTCATTACAGATTAGAAAAATTATATGTGGATGGAAAGAACAGTTAT`: “normalised bound fraction” 0.361 ratio.
`GAGCTGCTTGCAATTGAGTTGTATGTATGCTTCCACTTAATACGTCCTGCCGAGCCTGTAAGCCAACACTTCCGGCCAGGAATCTGCCCTCTGAGATTACCTACTCTCTTTTTATGTCTTATTCCCAGAATGACTGGGGACCAAAGGAATCCTTTGCAGGAGTTTTCTCCAGACAGACAGTTCCACATGCTAG`: “normalised bound fraction” -0.0449 ratio.

Sample 3 — method: RNA Bind-n-Seq; form: RNA; sample: in vitro; tested at: 365 nM; reference: no-protein control; reading: higher = stronger binding
Target: RNA binding protein fox-1 homolog 2, RRM domain, GST-SBP tag (RBFOX2, Homo sapiens, UniProt O43251-10, residues 100-194)
Notes: natural RNA segment, single round, ends assumed
Shared flanks, not repeated: GGGAGUUCUACAGUCCGACGAUC … UGGAAUUCUCGGGUGCCAA
Under “RBNS enrichment (R)”, `UUUGUUUUUUGUUUUUGUUUUUAACCUAGAAGAACCAAAUCUGGACGCCAAAACGUAGGCUUAGUUUGUGUGUUGUCUCUGAGUUUGUCGCUCAUGCGUACAACAGGGUA` is recorded as 0.511.
`AGAAAAGCCUGAACUAUUUAUUCAAAACAUGACCACUCUGGGCUAUAGAAGAUGCUGAGUGUGUUUGAGAGACUGACAUACAUAAUAGAUGACUUCCUAGGGUUCUGAAA`: “RBNS enrichment (R)” 0.722.
`GGACCCAGGGUCGCCUCAGGCAAAUGUGGUUGGUCGGUGGCUCCAAAGGCGAGAGGUUUUUCUUCCUGGCCCCCCAGUGUGGGUUUCUUCCUGUGAACUCACUCUGUGCC` — result for “RBNS enrichment (R)”: 0.361.
`UCACACCAUUAGGUGAUGCUUUGGACAGAACAGAGUAUUUUCAUCUUGUGUUUAAAGCAAUUCCUUGGCUUCGGCUCCUCACCACUUUCUAUGCCAGUCUCCCAUUUAUG` — result for “RBNS enrichment (R)”: 0.437.
For `CUGGGUCUCCUCAACUCUGCCCCAGCUUCUCGCAGCACAGGGCCAGGCACCAAGUGCGUAGGCGACGGUAGAUGUUUGCUGAUUGAAUUGAGUCCCCACGGCAUCUCUGG`, “RBNS enrichment (R)” read 1.11.
Under “RBNS enrichment (R)”, `GGCUCCACCAGGUACCAAGGGCAGCUGCUUUUCCUGUCUUUUGUGCAUGGGCGACCCAUUACAGUAUGAGAUAAGAUUGAGUUCUGAUGCGUUAAACGGAGGUGGCAGAA` is recorded as 0.73.
For `CAUUUUACUUAAAUGGAAAAUGUUUUUCAAAUAAAUACUUAUGUUGUUCAUGUUCCAAGUUAUUCAAUUCCUUUAUGAGUGAAUGUUUUUACUUUUGACUCCUAAAUAGG`, “RBNS enrichment (R)” read 0.651.
`GCACGCCGUGCGCGACGGCUGACCUGGCAGCGUAGAGUGGGAUGAUCUAAAACUAAAGCUGCCUGUGCUUGUUUGUAAAGCUUAUACUCCCAGAAUUAGCCUGAGCUGCU`: “RBNS enrichment (R)” 4.14.
Under “RBNS enrichment (R)”, `UAAGGAAGUGCUUUAUCAGCUAAACCCAACAUUGAUAACUUUGGUAAUUUUUUUAAAAAGUUAUACUUGUAUUAGCAAGUUUUUUUUUUUUUCCCCCACCGCAACCUCCA` is recorded as 0.651.
`GAUGUUAGGUAAAACAUGUAAUUGUUUCUCUGGCAAAUUUGUAUCAGUAAUUUGAAAAUGAGAUAUUAGGAAAAACCAAUUCUUCUUAAAUUUAGUUCAUCUUUCUUUAA` — result for “RBNS enrichment (R)”: 0.439.
`UUUAAGUAGUGACUAAGAUGAGAGGUUAUUGAAAAGUCAAGAACUAGUAGCAAUAGCAGAGAGAGCUGUAAAUUCUCAGGUCCUCCUAGACUUAACCAAAUCUGAGUGCC`: “RBNS enrichment (R)” 0.487.
Under “RBNS enrichment (R)”, `AUUUGUUUGGCUUAAACGUCAAAAGCCGUGACAAUUUGUUCUUUGAUGUGAUUGUAUUUCCAAUUUCUUGUUCAUGUAAGAUUUCAAUAAAACUAAAAAAUCUAUUCAAA` is recorded as 1.1.

Sample 4 — method: competition protein-binding microarray; form: double-stranded DNA, one strand shown; sample: in vitro; tested at: 2 µM; with: Cbf1 competitor, 0.05 µM; reading: higher = stronger binding; shared flanks, not repeated: … GTCTTGATTCGCTTGACGCTGCTG
Target: Phosphate system positive regulatory protein PHO4, full length, GST-tagged (PHO4, Saccharomyces cerevisiae, UniProt P07270, residues 1-312)
Notes: whole 60-bp probe, lowest competitor level
Target sequence (chain): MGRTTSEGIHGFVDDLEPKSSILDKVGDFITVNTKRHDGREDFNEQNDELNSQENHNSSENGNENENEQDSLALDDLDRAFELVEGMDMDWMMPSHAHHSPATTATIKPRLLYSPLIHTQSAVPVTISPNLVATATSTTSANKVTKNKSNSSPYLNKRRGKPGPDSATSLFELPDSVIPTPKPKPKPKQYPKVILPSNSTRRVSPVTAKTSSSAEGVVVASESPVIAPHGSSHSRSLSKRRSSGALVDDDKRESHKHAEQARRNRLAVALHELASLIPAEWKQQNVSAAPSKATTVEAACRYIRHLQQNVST
For `GTCTTGTCTCATTGCGATGTGGGTGTCCCCACTTCA`, the fluorescence intensity was 4400 a.u.
`CGGAGCTGCAAGTACTACGTGCCAGCAGCATAATAA` gave a fluorescence intensity of 7350 a.u.
The fluorescence intensity of `AGGTTTCCTTACTGGCACGTGCGGACCAAGCTCTAC` is reported as 21400 a.u.
With `GTCTTGTCTCATTTTCACGTGCAATTCCCCACTTCA` the fluorescence intensity was 13400 a.u.
With `CTGCATCGGCCGGCCCATGTGAAAAGGAAGTATTTA` the fluorescence intensity was 7230 a.u.
For `CATACCCAACCTTGTCACATCACTTAAGATATTTGT`, the fluorescence intensity was 4290 a.u.
For `TGCGCAACAACTTTTCACGTGTCATTATGTCTAGAA`, the fluorescence intensity was 14000 a.u.
`GGTCCATTCGGCTTGCTGGTGGTACTGAGACAGATA` gave a fluorescence intensity of 3830 a.u.
For `CACTAGCTCGGTTTAGTTGTGACGGGTCTGCTGTAC`, the fluorescence intensity was 3960 a.u.
`CGGGGTTAAGTTTGTCACTCGACTTGCTTGCAGCAG` has a fluorescence intensity of 3030 a.u.
With `TTGCCTTTTTCACTTCACGTGCTTTTGGTACATACT` the fluorescence intensity was 14000 a.u.
`CTTTCCCGATCTTTTCACGTGGATTTAGCACATTTG` has a fluorescence intensity of 16000 a.u.
`TTGCACTAGACGAGTCACGTGGCCGTTAATCCCCCG` has a fluorescence intensity of 16800 a.u.
`CTTCTGTAAATTTGAGTGGTGGGTGGACGCGCCCCG` gave a fluorescence intensity of 4330 a.u.
`CGGGGTTAAGTTTGAACCGTGGGTGGCTTGCAGCAG` has a fluorescence intensity of 7460 a.u.
With `GTTTCTTTATTAGTGCGGTGATATACCTCATATTAT` the fluorescence intensity was 4360 a.u.
The fluorescence intensity of `CCGGTCCTTTGCTGGCACGTGAATTGGATAGTACAT` is reported as 15600 a.u.
For `TTCCACCGAATTTCCCACCTGATAATATCTGATAAC`, the fluorescence intensity was 3770 a.u.
For `GTAAGTGAGATAATCCACGTGCTTTAAAGAAGTTGT`, the fluorescence intensity was 19200 a.u.
For `ATTGTCATCATCATCAGCGTGAGAAAGTCGAAACAA`, the fluorescence intensity was 5120 a.u.
The fluorescence intensity of `GCGACTATGGTATTTCTCGTGATGGGCCTGAAGGTT` is reported as 4240 a.u.
